# Measurements collected from several papers.
# Every numbered part comes from another study and shows a few of its results, in no order. Substitutions count along the parent as printed.

# Block 1 — target: CCNA1, cyclin fold, Cln2 fusion (human); method: yeast growth competition, sequencing; sample: yeast; notes: weak parent motif; baseline: not given; reading: higher = stronger binding
# Parent: PKN2 docking peptide (human); VSAVQKLDFSDTM; partner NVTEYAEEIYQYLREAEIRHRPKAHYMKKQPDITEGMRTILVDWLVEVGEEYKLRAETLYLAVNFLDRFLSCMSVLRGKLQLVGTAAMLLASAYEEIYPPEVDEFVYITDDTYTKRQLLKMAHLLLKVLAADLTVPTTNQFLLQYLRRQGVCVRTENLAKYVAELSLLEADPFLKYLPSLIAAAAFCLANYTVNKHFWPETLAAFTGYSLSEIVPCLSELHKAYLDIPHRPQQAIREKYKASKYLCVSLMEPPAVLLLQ
Variant,normalised enrichment score
VSAIQKLDFSDTM [V4I],0.193
VSAVQKLDFSDHM [T12H],0.221
VSALQKLDFSDTM [V4L],0.542
VSAVQELDFSDTM [K6E],0.0558
VSAVQKLDFHDTM [S10H],0.119
VSAEQKLDFSDTM [V4E],0.485
VSAVQKGDFSDTM [L7G],0.198
VSAVQKLDFSDTA [M13A],0.172
VSAVQKLDFMDTM [S10M],0.473
VSAVQKLDFSDTN [M13N],0.203

# Block 2 — method: DHFR PCA, deep sequencing; sample: yeast; added: (+)-ABA 17 µM; baseline: wild-type fitted maximum; reading: higher = stronger binding
# Target: ABI1, truncated, D143A, DHFR fusion (Arabidopsis thaliana)
# Notes: methotrexate growth selection, single substitutions
# Parent: PYL1, truncated, DHFR fusion (Arabidopsis thaliana); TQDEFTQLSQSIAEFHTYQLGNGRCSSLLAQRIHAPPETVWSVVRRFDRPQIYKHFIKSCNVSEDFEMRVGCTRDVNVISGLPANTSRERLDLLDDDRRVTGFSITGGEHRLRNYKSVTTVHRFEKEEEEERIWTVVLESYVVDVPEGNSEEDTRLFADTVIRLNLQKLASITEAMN; partner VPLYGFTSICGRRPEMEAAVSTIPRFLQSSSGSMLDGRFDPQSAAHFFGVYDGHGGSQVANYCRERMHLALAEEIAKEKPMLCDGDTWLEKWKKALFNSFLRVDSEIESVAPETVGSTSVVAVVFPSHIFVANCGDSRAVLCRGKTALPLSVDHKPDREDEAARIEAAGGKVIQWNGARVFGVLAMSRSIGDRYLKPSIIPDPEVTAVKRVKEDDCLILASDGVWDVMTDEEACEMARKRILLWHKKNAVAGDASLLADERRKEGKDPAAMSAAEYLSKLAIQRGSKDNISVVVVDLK
Variant,relative binding score
Q10E,87.3%
V143A,34.5%
F157S,-0.0364%
Q167E,78.3%
E129R,79.2%
G23H,74%
T73S,74%

# Block 3 — method: protein binding microarray; molecule type: double-stranded DNA, one strand shown; sample: in vitro; tested at: not given; baseline: not given; reading: higher = stronger binding
# Target: Histone acetyltransferase KAT6A, winged helix 1, GST fusion (KAT6A, Homo sapiens, UniProt Q92794, residues 1-85)
# Notes: 8-mer, flanks averaged, mean of 2 arrays, mostly near background
# Target sequence (chain): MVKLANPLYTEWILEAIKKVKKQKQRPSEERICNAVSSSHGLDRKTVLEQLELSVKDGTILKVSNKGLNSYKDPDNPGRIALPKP
Oligonucleotide,E-score
AAGTCAAT,-0.11
GCTATGAA,-0.0876
AAAGCATT,-0.167
AAGTGAAT,-0.0946
CAATCGCC,0.138
GGTAGCTA,-0.0136
TACTTCGA,0.0519
CTGAATGA,-0.0331
AAACCTCA,-0.128

# Other studies, line by line
Substance,target,test,system,conditions,how to read,quantity,value
"PhoQ, residues 284 288 289 292 302 303 MLMVEA","PhoP, residues 12 14 15 18 19 HLGGL (Escherichia coli, UniProt P23836)","Sort-seq, item: YFP reporter",E. coli,"PhoQ-PhoP variant library, added: 10 µM Mg2+","baseline: high Mg2+ state, higher = stronger signaling",fold induction,17.2

# A few entries again (block 1):
Variant,normalised enrichment score
VSAVQKLDFSDHM [T12H],0.221
